{"data": "Results of several laboratories", "note": "A part holds a random share of what one study measured. “And” joins repeats or separate records; there may be more than shown. Numbers after ± are the reported error.", "sequence of UniProt Q9UF33 (whole entry, looked up)": "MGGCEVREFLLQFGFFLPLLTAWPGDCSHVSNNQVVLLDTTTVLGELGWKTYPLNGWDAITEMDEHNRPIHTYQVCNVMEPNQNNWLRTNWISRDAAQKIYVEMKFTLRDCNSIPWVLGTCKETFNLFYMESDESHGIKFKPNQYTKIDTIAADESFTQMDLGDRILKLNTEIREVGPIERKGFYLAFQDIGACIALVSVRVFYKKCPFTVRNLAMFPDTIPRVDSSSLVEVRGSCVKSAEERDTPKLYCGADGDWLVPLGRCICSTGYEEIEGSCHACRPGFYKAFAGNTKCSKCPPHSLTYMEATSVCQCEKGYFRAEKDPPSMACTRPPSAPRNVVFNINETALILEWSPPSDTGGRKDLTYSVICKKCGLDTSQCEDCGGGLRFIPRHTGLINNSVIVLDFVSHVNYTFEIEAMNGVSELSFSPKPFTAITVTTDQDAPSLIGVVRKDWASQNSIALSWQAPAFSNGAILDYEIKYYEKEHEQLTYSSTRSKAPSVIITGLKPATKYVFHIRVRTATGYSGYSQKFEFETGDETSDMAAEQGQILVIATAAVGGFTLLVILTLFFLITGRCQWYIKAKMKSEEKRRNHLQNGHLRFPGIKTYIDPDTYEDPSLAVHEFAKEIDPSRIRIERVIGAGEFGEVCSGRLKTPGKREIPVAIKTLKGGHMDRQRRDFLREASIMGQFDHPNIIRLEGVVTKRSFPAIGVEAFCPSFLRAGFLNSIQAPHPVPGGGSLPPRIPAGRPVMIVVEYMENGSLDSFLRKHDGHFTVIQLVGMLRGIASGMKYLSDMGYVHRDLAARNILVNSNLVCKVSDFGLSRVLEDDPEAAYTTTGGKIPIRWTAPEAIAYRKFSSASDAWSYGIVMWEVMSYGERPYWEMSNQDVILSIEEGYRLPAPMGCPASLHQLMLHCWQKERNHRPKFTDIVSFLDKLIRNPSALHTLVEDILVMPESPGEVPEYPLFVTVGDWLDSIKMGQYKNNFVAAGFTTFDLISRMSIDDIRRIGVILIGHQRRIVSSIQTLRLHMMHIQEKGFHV", "sequence of UniProt Q14012 (whole entry, looked up)": "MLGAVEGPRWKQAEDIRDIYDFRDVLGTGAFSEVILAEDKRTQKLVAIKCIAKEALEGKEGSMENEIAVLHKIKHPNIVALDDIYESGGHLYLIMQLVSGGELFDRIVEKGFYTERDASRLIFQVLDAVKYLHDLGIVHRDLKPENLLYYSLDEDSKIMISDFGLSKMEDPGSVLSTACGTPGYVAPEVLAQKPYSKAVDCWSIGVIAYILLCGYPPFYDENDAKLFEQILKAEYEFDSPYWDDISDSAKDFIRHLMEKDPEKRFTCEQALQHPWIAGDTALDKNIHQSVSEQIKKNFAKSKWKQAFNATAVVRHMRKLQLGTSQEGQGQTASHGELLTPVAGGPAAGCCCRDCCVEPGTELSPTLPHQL", "sequence of UniProt Q9HBY8 (whole entry, looked up)": "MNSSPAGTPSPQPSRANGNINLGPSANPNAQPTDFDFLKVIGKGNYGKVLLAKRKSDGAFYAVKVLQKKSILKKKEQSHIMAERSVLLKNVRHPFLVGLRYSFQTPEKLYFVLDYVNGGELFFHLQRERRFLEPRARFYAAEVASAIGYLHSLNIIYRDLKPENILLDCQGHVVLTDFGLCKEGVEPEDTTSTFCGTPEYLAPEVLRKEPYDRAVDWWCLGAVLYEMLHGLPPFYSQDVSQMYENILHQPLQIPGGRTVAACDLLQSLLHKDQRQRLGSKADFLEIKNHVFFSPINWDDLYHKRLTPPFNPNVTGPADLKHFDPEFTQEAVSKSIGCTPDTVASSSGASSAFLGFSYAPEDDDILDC", "sequence of UniProt P49674 (whole entry, looked up)": "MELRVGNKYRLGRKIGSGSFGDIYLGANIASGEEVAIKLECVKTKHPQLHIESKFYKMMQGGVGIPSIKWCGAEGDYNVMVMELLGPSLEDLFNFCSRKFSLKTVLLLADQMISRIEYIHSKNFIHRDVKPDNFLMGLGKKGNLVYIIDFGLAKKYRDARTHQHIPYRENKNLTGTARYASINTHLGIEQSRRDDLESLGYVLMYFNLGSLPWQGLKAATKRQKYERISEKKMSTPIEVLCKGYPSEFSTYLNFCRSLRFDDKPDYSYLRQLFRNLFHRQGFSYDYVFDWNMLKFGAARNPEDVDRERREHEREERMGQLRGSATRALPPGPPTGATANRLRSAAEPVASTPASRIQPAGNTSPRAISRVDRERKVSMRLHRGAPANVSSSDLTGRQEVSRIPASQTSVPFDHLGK", "sequence of UniProt P41143 (whole entry, looked up)": "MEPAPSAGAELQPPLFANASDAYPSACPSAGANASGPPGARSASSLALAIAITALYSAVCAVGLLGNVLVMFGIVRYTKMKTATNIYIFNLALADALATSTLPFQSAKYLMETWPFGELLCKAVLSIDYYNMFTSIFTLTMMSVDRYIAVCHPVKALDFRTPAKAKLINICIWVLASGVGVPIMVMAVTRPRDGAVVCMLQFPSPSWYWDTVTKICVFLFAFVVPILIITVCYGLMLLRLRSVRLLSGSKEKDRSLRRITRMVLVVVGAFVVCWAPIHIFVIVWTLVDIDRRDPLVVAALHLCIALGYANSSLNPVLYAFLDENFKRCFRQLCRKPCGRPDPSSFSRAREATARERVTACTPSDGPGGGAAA", "sequence of UniProt P49760 (whole entry, looked up)": "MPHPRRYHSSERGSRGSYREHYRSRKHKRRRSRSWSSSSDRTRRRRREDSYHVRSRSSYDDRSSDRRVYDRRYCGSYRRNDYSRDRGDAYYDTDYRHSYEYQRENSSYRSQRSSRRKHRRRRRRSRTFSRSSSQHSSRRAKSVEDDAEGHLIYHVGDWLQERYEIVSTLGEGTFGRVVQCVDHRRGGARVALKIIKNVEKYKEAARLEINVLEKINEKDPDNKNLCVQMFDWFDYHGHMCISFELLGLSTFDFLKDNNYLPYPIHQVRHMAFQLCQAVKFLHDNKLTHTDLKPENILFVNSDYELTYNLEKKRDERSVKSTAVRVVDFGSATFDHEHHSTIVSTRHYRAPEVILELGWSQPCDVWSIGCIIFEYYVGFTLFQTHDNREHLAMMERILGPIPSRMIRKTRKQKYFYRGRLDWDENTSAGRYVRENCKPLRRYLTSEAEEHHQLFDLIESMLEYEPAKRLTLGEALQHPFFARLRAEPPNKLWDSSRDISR", "sequence of UniProt Q96SB4 (whole entry, looked up)": "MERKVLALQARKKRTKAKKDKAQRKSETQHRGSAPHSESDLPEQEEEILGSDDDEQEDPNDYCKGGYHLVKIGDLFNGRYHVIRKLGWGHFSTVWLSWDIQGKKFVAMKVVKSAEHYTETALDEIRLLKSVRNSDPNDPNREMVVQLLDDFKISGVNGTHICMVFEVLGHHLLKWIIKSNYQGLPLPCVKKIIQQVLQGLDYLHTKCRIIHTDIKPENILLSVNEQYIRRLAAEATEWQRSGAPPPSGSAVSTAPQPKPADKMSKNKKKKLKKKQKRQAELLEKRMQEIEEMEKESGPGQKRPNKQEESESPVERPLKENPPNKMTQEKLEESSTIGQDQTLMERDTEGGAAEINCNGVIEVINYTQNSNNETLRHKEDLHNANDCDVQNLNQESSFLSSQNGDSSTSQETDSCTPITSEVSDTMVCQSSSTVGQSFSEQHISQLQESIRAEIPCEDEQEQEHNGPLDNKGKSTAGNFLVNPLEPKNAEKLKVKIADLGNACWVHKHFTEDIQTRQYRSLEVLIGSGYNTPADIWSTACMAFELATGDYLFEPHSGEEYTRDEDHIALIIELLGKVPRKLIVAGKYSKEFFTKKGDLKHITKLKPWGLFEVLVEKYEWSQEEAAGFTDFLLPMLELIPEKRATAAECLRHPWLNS", "sequence of UniProt P23458 (whole entry, looked up)": "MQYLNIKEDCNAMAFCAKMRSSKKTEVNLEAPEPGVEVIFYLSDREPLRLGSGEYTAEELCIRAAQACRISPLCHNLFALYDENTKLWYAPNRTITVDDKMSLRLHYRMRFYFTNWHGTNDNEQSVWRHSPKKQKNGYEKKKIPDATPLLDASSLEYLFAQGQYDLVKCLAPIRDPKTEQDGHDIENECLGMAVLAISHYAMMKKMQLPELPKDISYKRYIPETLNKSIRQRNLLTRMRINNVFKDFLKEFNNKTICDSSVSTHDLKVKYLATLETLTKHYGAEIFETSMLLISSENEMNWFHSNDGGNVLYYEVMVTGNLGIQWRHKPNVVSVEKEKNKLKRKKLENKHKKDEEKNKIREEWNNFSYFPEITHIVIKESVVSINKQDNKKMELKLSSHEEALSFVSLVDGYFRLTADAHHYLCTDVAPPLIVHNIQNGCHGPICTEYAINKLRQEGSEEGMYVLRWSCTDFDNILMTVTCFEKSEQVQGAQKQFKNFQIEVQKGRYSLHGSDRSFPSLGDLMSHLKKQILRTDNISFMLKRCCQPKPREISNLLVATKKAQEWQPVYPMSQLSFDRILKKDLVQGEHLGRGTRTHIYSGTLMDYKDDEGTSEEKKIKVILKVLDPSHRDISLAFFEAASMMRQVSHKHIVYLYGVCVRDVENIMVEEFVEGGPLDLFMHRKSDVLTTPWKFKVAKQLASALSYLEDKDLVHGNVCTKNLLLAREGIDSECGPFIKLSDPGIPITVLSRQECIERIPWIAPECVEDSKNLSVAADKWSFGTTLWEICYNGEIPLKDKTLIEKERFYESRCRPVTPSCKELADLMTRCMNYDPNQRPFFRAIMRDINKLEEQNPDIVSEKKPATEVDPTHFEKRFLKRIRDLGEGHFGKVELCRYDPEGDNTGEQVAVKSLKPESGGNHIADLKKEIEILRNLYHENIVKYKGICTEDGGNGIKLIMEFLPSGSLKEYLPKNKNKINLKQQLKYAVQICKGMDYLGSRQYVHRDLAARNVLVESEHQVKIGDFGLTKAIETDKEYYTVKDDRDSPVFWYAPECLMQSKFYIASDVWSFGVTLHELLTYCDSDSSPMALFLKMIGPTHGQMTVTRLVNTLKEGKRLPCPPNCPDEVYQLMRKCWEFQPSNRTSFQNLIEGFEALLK"}
{"data": "Set 1", "cell line": "HEK-293T", "read-out": "pseudovirus infection", "technique": "FDA-approved drug library counter-screen", "organism": "VSV pseudotyped with VSV-G", "concentration": "10 µM", "time": "16 h", "reference": "vehicle-treated"}
{"Compound": "O=C(O[C@H]1C[C@H]2CC[C@@H](C1)[N+]21CCCC1)C(O)(c1ccccc1)c1ccccc1", "GFP-positive cells": "89.6%"}
{"Compound": "CCC(=O)O[C@]1(C(=O)SCF)[C@H](C)C[C@H]2[C@@H]3C[C@H](F)C4=CC(=O)C=C[C@]4(C)[C@@]3(F)[C@@H](O)C[C@@]21C", "GFP-positive cells": "112%"}
{"Compound": "O=C1CN2Cc3c(ccc(Cl)c3Cl)N=C2N1", "GFP-positive cells": "101%"}
{"Compound": "C[C@@](Cc1ccc(O)c(O)c1)(NN)C(=O)O", "GFP-positive cells": "101%"}
{"Compound": "CO[C@H]1/C=C/O[C@@]2(C)Oc3c(C)c(O)c4c(O)c(c(/C=N/N5CCN(C)CC5)c(O)c4c3C2=O)NC(=O)/C(C)=C\\C=C\\[C@H](C)[C@H](O)[C@@H](C)[C@@H](O)[C@@H](C)[C@H](OC(C)=O)[C@@H]1C", "GFP-positive cells": "108%"}
{"Compound": "COc1ccc(C(=O)CC(=O)c2ccc(C(C)(C)C)cc2)cc1", "GFP-positive cells": "113%"}
{"Compound": "Nc1ccn([C@H]2CC[C@@H](CO)O2)c(=O)n1", "GFP-positive cells": "114%"}
{"Compound": "COc1ccc(-n2nc(C(N)=O)c3c2C(=O)N(c2ccc(N4CCCCC4=O)cc2)CC3)cc1", "GFP-positive cells": "98.9%"}
{"Compound": "O=C1C(CC[S+]([O-])c2ccccc2)C(=O)N(c2ccccc2)N1c1ccccc1 (stereo not drawn)", "GFP-positive cells": "118%"}
{"Compound": "CCn1nc(C(=O)O)c(=O)c2cc3c(cc21)OCO3", "GFP-positive cells": "88.2%"}
{"Compound": "O=C1CCCC(=O)C1C(=O)c1ccc(C(F)(F)F)cc1[N+](=O)[O-]", "GFP-positive cells": "118%"}
{"Compound": "O=C1CCc2cc(OCCCCc3nnnn3C3CCCCC3)ccc2N1", "GFP-positive cells": "117%"}
{"data": "Set 2", "SMILES": "O=C1NC(=O)c2c1c1c3ccccc3n3c1c1c2c2ccccc2n1[C@H]1CC[C@@H]3O1", "read-out": "enzyme activity", "action": "inhibitor", "concentration": "0.5 µM", "reference": "control"}
{"target": "SIK2 (Homo sapiens, UniProt Q9H0K1)", "remaining activity": "33.9%"}
{"target": "SRPK1 (Homo sapiens, UniProt Q96SB4)", "remaining activity": "88.1%"}
{"target": "JAK1 (Homo sapiens, UniProt P23458)", "remaining activity": "22.2%"}
{"target": "CSNK1E (Homo sapiens, UniProt P49674)", "remaining activity": "47.3%"}
{"target": "EPHA6 (Homo sapiens, UniProt Q9UF33)", "remaining activity": "63.9%"}
{"target": "PAK6 (Homo sapiens, UniProt Q9NQU5)", "remaining activity": "85.4%"}
{"target": "SGK2 (Homo sapiens, UniProt Q9HBY8)", "remaining activity": "18.6%"}
{"target": "CAMK1 (Homo sapiens, UniProt Q14012)", "remaining activity": "69.7%"}
{"target": "CLK2 (Homo sapiens, UniProt P49760)", "remaining activity": "52.1%"}
{"target": "TEC (Homo sapiens, UniProt P42680)", "remaining activity": "142%"}
{"data": "Single results of other studies"}
{"SMILES": "CN(N=O)C(=O)N[C@@H]1[C@@H](O)[C@H](O)[C@@H](CO)O[C@@H]1O", "test system": "mice, STZ diabetic neuropathy", "setting": "dose not given, 3 days after STZ", "measurement": "body weight", "value": "37.2 g and 35.7 g and 32.9 g and 39.2 g and 33.9 g"}
{"SMILES": "CCN(CC)C(=O)c1ccc(C2=CC3(CCNCC3)Oc3cccc(O)c32)cc1", "tested on": "Delta-type opioid receptor, with Gi1 (OPRD1, Homo sapiens, UniProt P41143)", "test system": "human cells", "measurement": "Emax", "value": "114 ± 3%"}
{"note": "For quick reference, copied from above (set 2):"}
{"target": "EPHA6 (Homo sapiens, UniProt Q9UF33)", "remaining activity": "63.9%"}
{"target": "PAK6 (Homo sapiens, UniProt Q9NQU5)", "remaining activity": "85.4%"}
